{"data": "Results of several laboratories", "note": "A part holds a random share of what one study measured. Positions count from the first letter of the parent shown."}
{"data": "Sample 1", "target": "CCNE1, cyclin fold, Cln2 fusion (human)", "method": "yeast growth competition, sequencing", "medium": "yeast", "notes": "weak parent motif", "relative to": "not given", "reading": "higher = stronger binding", "starting sequence": "WEE1 docking peptide (human); HKTFRKLRLFDTP"}
{"Variant": "K6C", "normalised enrichment score": 0.572}
{"Variant": "L9N", "normalised enrichment score": 0.125}
{"Variant": "F10S", "normalised enrichment score": -0.258}
{"Variant": "F10R", "normalised enrichment score": 0.526}
{"Variant": "L7T", "normalised enrichment score": 0.75}
{"Variant": "D11N", "normalised enrichment score": -0.112}
{"Variant": "F10Q", "normalised enrichment score": -0.626}
{"Variant": "R8N", "normalised enrichment score": 0.177}
{"Variant": "L9I", "normalised enrichment score": 0.346}
{"Variant": "L9A", "normalised enrichment score": 0.72}
{"Variant": "P13M", "normalised enrichment score": 1.61}
{"Variant": "F10H", "normalised enrichment score": -0.0571}
{"Variant": "H1V", "normalised enrichment score": -0.105}
{"Variant": "P13S", "normalised enrichment score": -0.18}
{"Variant": "L7G", "normalised enrichment score": 0.842}
{"Variant": "D11G", "normalised enrichment score": 0.159}
{"Variant": "R8T", "normalised enrichment score": 0.463}
{"Variant": "F10L", "normalised enrichment score": 0.201}
{"Variant": "T12Y", "normalised enrichment score": -0.245}
{"Variant": "R8V", "normalised enrichment score": 0.552}
{"Variant": "T12W", "normalised enrichment score": 0.932}
{"Variant": "K6S", "normalised enrichment score": 0.0912}
{"Variant": "T3A", "normalised enrichment score": -0.393}
{"Variant": "P13R", "normalised enrichment score": -0.523}
{"Variant": "L7W", "normalised enrichment score": 1.31}
{"data": "Sample 2", "target": "Ras GTPase-activating protein-binding protein 1, RRM domain (G3BP1, Homo sapiens, UniProt Q13283)", "method": "RNA Bind-n-Seq", "form": "RNA", "medium": "in vitro", "concentration": "1 µM", "notes": "whole 134-nt RNA, ends assumed", "with": "150 mM KCl", "relative to": "input library", "reading": "higher = stronger binding", "constant ends, left off below": "GGGAGUUCUACAGUCCGACGAUC … UGGAAUUCUCGGGUGUCAAGG", "sequence of UniProt Q13283 (whole entry, looked up)": "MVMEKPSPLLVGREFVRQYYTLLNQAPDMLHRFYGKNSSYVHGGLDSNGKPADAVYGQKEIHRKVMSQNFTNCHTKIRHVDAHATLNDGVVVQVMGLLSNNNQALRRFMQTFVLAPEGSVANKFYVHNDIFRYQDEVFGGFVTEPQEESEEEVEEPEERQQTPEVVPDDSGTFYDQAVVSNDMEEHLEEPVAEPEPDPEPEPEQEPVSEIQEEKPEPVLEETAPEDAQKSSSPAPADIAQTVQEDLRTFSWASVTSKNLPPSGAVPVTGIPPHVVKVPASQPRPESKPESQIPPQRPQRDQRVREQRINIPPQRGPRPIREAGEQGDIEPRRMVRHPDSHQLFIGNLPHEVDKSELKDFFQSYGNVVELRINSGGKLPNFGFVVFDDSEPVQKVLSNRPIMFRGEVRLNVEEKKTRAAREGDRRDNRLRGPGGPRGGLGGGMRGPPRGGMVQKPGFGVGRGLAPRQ"}
{"Strand": "UCCUGUGCUACACAUCGUAUGUACCGAAUCGGGUUUUUGGGGUUUUUGGGGUUUUUGGGAAAGUAUUAUGUUACGCCGUUCGGAUCUGCA", "log2 enrichment": 0.119}
{"Strand": "CAAGUCCUGUGCUACACAUCGUAUGUACCGAAUCGGGAAAAAAAGGGUGGGAGGGAAAGUAUUAUGUUACGCCGUUCGGAUCUGCACUUC", "log2 enrichment": 0.844}
{"Strand": "UGGCCCUGGUGGCAUGCGGGGAGGAAGAGGUGGCCUCAUGGAUCGUGGUGGUCCCGGUGGAAUGUUCAGAGGUGGCCGUGUUGGAGACAG", "log2 enrichment": 1.67}
{"Strand": "CCUCAAGUCCUGUGCUACACAUCGUAUGUACCGAAUCGGGAAGGGAAGGAAGGAAAGUAUUAUGUUACGCCGUUCGGAUCUGCACUUCCA", "log2 enrichment": -0.262}
{"Strand": "AAGUCCUGUGCUACACAUCGUAUGUACCGAAUCGGGUUUUUGGGAAAGGGAAAGGGAAAGUAUUAUGUUACGCCGUUCGGAUCUGCACUU", "log2 enrichment": 0.481}
{"Strand": "AGUCCUGUGCUACACAUCGUAUGUACCGAAUCGGGAAAGGGUUUUUUUGGGUUUGGGAAAGUAUUAUGUUACGCCGUUCGGAUCUGCACU", "log2 enrichment": 0.282}
{"Strand": "GCAGGAAGUAAAAACAAAUGGAAAUGCUUGGGAUAGUGGCAGGGGUGGGGGUUGCUAAGGAAAGGGUGGGAUGGGAGUGGGUAAAGAGUU", "log2 enrichment": 1.26}
{"Strand": "AUGCACUUGACAUAGUAGCAAAUUGGUUCUGAAUUAUGCAACUGUUUGCUAUUUAGUAAACUAGCAAAUGAUGCAUGUAUUUUGUUUUUC", "log2 enrichment": -0.167}
{"Strand": "CUGUGCUACACAUCGUAUGUACCGAAUCGGGGUUUUUUGGGGUUUUUUGGGGUUUUUUGGGGAAAGUAUUAUGUUACGCCGUUCGGAUCU", "log2 enrichment": 0.705}
{"data": "Sample 3", "target": "RNA binding protein fox-1 homolog 2, RRM domain, GST-SBP tag (RBFOX2, Homo sapiens, UniProt O43251-10, residues 100-194)", "method": "RNA Bind-n-Seq", "form": "RNA", "medium": "in vitro", "concentration": "365 nM", "notes": "natural RNA segment, single round, ends assumed", "relative to": "no-protein control", "reading": "higher = stronger binding", "constant ends, left off below": "GGGAGUUCUACAGUCCGACGAUC … UGGAAUUCUCGGGUGCCAA", "Residues (chain)": "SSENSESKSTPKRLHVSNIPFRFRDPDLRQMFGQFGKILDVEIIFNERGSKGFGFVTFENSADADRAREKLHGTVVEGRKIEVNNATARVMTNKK"}
{"Strand": "AGAGGGGCCUAUAGGUCCUUCACUGUUCCCUCCUGUGUGUUGGAGUUCUUUAGUUAGCAGUUCAGGCUGGUUGGACAGGUUUGAAUCAAAUUGUACUUUGUUCCAUUGUU", "RBNS enrichment (R)": 1.09}
{"Strand": "CUUCACCAUAGCAGCAGCAGACCUCCAUAUGGAGGAGGAAGAGGACACCUGGAGCCAAAGCAGGAGUUGGAGGGACAAUGCCACUAUGAAUCUAAUGUUUAAAAGGUUAG", "RBNS enrichment (R)": 0.719}
{"Strand": "AGACCUUUCCCUCUCCCUGCCCCUAGAACAACCAGUAUUAGAAGGUGCCACCAUUGGUGCUGCCUUCUCUUCCCACAGCCUGUAACUCAGUGUUUUGUACUUCACUGAAU", "RBNS enrichment (R)": 0.479}
{"Strand": "UGUCCUGUCUGUAUGAUCUAAAAACCAGCCUUUUCCCCAGAAGGCUCUGAGCACAUCCAGAAGUGAUAACCUGACCCUCCACACCAAAGACACCCUGGUGCUGCUGCUGG", "RBNS enrichment (R)": 0.442}
{"Strand": "GCUGCCUGACCAUCCAGUGACAUGAUCCUGACCUUUACCUAGGAUUCCUCCUGCUCCAAACUUUGCCCAUCCUCUUUGCCCCCUCAGGAGUGCUGAGGGCCAGUGUUGAC", "RBNS enrichment (R)": 0.827}
{"Strand": "AGUGUACAGGACAGCUAGGGUAAAGGACAGCUAGUGUACAGGGCUCCAGGAGACUUGGGGAUUUGUGUUUAGCUAUGUGUGGGAAUUUGCAAAUGCUUUGUGCUUUGACU", "RBNS enrichment (R)": 1.61}
{"Strand": "UGAUACUUGUGGAUGUUUUUCUUCAUUAGAUAAGAAUGUAUUACCAUUAAAUCCAUUAGUAUUACAUUGCUUUCAAAGAGAAGGUGGGUGGAACUAUAAUUCAGCAUCUU", "RBNS enrichment (R)": 0.642}
{"Strand": "UACUCUGGUAUGAUUGGUUCUGUUGGAAACUGAUUUAGGUGAAUACAGACAUACCAUAGGGGUAAGGAACUGAAUGCUGUAAAGGAGUCGGUUCUCAUCUCAGGUUGGUA", "RBNS enrichment (R)": 0.281}
{"data": "Sample 4", "target": "Sal-like protein 4, full length isoform A (SALL4, Homo sapiens, UniProt Q9UJQ4, residues 1-1053)", "method": "universal PBM", "form": "double-stranded DNA, one strand shown", "medium": "in vitro", "concentration": "600 nM", "notes": "8-mer, flanks averaged, mean of replicates", "reading": "higher = stronger binding", "sequence of UniProt Q9UJQ4 (whole entry, looked up)": "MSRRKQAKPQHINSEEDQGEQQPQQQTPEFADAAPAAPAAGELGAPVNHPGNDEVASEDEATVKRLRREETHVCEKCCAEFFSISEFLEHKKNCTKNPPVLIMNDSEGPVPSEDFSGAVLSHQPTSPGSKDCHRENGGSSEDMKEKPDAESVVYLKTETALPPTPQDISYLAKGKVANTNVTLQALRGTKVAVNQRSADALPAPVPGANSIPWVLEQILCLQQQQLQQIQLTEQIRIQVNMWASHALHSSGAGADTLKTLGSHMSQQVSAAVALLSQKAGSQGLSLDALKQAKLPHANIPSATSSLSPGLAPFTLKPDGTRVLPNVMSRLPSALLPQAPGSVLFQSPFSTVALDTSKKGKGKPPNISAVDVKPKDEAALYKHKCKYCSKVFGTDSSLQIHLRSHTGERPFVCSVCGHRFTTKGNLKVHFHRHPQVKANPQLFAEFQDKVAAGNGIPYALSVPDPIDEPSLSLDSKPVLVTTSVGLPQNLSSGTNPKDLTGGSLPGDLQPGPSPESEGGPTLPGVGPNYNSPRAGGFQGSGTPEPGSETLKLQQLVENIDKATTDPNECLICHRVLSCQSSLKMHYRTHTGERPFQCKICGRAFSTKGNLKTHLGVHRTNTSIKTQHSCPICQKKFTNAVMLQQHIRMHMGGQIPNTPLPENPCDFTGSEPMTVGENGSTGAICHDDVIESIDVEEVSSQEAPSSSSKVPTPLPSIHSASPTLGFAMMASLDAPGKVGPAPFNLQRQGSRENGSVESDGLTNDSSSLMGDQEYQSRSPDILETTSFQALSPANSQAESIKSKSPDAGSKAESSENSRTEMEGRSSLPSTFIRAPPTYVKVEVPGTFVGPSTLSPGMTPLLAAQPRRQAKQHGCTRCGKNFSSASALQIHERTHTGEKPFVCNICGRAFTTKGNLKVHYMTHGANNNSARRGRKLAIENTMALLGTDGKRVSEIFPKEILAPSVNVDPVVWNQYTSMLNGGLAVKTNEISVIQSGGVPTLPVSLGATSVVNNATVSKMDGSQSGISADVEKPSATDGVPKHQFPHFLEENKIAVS"}
{"Strand": "AGACTGGA", "E-score": -0.108}
{"Strand": "AATGTCTG", "E-score": 0.127}
{"Strand": "ATTCAGCG", "E-score": -0.0339}
{"Strand": "GGCCAACA", "E-score": -0.15}
{"Strand": "CTCTCATC", "E-score": -0.101}
{"Strand": "CAACCTTC", "E-score": -0.0259}
{"Strand": "ACTTAATC", "E-score": 0.186}
{"Strand": "GCCGGAGC", "E-score": -0.254}
{"Strand": "GAGCTGGC", "E-score": -0.281}
{"Strand": "ATCTGTCG", "E-score": -0.0101}
{"Strand": "GTTATGCA", "E-score": 0.194}
{"Strand": "AGCGCCTG", "E-score": -0.338}
{"Strand": "AACTAAGC", "E-score": 0.00128}
{"Strand": "ATTATTTC", "E-score": 0.39}
{"Strand": "CACAACCA", "E-score": 0.0348}
{"Strand": "AAGATTAG", "E-score": 0.191}
{"Strand": "GTGGCAAA", "E-score": -0.0479}
{"Strand": "CTGCGCGC", "E-score": -0.133}
{"Strand": "CCGCGATC", "E-score": -0.314}
{"Strand": "AATCGTGC", "E-score": 0.073}
{"Strand": "GTCGCTCA", "E-score": -0.163}
{"Strand": "ATGACTTA", "E-score": 0.148}
{"Strand": "GCGCAGCA", "E-score": -0.317}
{"note": "Excerpt of the above (sample 1):"}
{"Variant": "L9N", "normalised enrichment score": 0.125}
{"Variant": "F10R", "normalised enrichment score": 0.526}
{"Variant": "K6C", "normalised enrichment score": 0.572}
{"Variant": "P13M", "normalised enrichment score": 1.61}
{"Variant": "L9I", "normalised enrichment score": 0.346}
{"Variant": "P13S", "normalised enrichment score": -0.18}
{"Variant": "F10L", "normalised enrichment score": 0.201}
{"Variant": "D11N", "normalised enrichment score": -0.112}
{"Variant": "P13R", "normalised enrichment score": -0.523}
{"Variant": "T3A", "normalised enrichment score": -0.393}
{"Variant": "L7G", "normalised enrichment score": 0.842}
